Measurements of several laboratories.
Each line is one published result; not all experiments were run side by side. ± gives the spread as reported.

CC(C)(C)c1ccc(O)c(CN(Cc2cc(C(C)(C)C)ccc2O)C2CCC(NC(N)=O)CC2)c1 (centres unmarked)  Tmax (C57BL/6 mice, male, brain; intraperitoneal, 10 mg/kg): 0.5 h
COc1cc([C@@H]2[C@H]3CO[C@@]4(O)C(=O)[C@@H]2C=C([C@H]2Oc5cc(O)cc(O)c5C(=O)[C@@H]2O)[C@@H]34)ccc1O  Tmax (FVB wild-type mice, plasma; oral gavage, 500 mg/kg silymarin, median): 0.75 h
CNC(=O)c1cc(Oc2ccc(NC(=O)Nc3ccc(Cl)c(C(F)(F)F)c3)c(F)c2)cc[n+]1[O-]  Tmax (Oatp1b2 knockout mice, plasma; oral, 10 mg/kg regorafenib): 5.8 ± 1.86 h
CCc1nc(C(N)=O)c(Nc2ccc(N3CCC(N4CCN(C)CC4)CC3)c(OC)c2)nc1NC1CCOCC1  Tmax (female FVB mice, MATE1 knockout, plasma; oral, 10 mg/kg, single dose): 1 h
O=[N+]([O-])c1ccc(-c2ccc(O)cc2)c2cccnc12  Tmax (ICR mice male, plasma; oral, 5 mg/kg): 0.25 h
CN[C@@H](C)C(=O)N[C@H]1CN(C(=O)CC(C)C)CC[C@H]2CC[C@@H](C(=O)NC(c3ccccc3)c3ccccc3)N2C1=O  Tmax (SCID mice, MDA-MB-231 xenograft, tissues; oral, 100 mg/kg): ≤ 1 h
CC(C)(C)c1sc2ncnc(Oc3c(F)cccc3OC(F)(F)F)c2c1-c1ccc(Cl)cc1  Tmax (wild-type mice, plasma; oral, 30 mg/kg): 1 h
Cc1c(C(=O)O)ccc2c3n(nc12)[C@@H]1[C@H](C3)N(CC2CC2)[C@@]2(C(=O)Nc3cc(Cl)ccc32)[C@H]1c1cccc(Cl)c1F  Tmax (female BALB/c nude mice, SJSA-1 xenograft, plasma; oral, 2 mg/kg once daily, mean): 2.4 h
COc1cc([C@@H]2Oc3cc([C@H]4Oc5cc(O)cc(O)c5C(=O)[C@@H]4O)ccc3O[C@H]2CO)ccc1O  Tmax (FVB wild-type mice, plasma; oral gavage, 500 mg/kg silymarin, median): 0.25 h
CCN1CCN(Cc2ccc(NC(=O)c3ccc(C)c(NC(=O)c4cncc(-c5cccs5)c4)c3)cc2C(F)(F)F)CC1  Tmax (C57BL/6 mice, epithelial lining fluid; intraperitoneal, 10 mg/kg): 0.5 h
Cc1cc(C)c(CNC(=O)c2cc(Cl)c3c(c2C)O[C@@](C)([C@H]2CC[C@H](N(C)C)CC2)O3)c(=O)[nH]1  Tmax (female CB17 SCID mice, HT-1376 xenograft, plasma; 75 mg/kg, day 1): 1.33 h
CNC(=O)c1cc(Oc2ccc(NC(=O)Nc3ccc(Cl)c(C(F)(F)F)c3)c(F)c2)ccn1  Tmax (male DBA/1lacJ Oatp1b2 knockout mice, plasma; oral, 10 mg/kg single dose): 1.5 h
CN1C[C@H](COc2nccc3c(NCc4ccco4)cc(Cl)nc23)OC1=O  Tmax (C57BL/6 mice, plasma; oral, 10 mg/kg): 0.38 h
CC1(C)CC[C@]2(C(=O)O)CC[C@]3(C)C(=CC[C@@H]4[C@@]5(C)C[C@@H](O)[C@H](OC(=O)/C=C/c6ccc(O)cc6)C(C)(C)[C@@H]5CC[C@]43C)[C@@H]2C1 (relative stereo)  Tmax (C57BL/6 mice, brain; intraperitoneal, 85 µmol/kg single dose): 2 h
COc1cc([C@@H]2Oc3ccc([C@H]4Oc5cc(O)cc(O)c5C(=O)[C@@H]4O)cc3O[C@H]2CO)ccc1O  Tmax (FVB wild-type mice, plasma; oral gavage, 500 mg/kg silymarin, median): 0.25 h
COCc1cc(C(=O)Nc2cc([C@H]3CC[C@@H](OC(=O)NC(C)C)C3)[nH]n2)n(C)n1  Tmax (OVCAR-3 xenograft, NOD/SCID gamma mice, plasma; oral, 15 twice daily, PK/PD study): 7.5 h
C=CC(=O)N1CC2CC(n3nc(-c4ccc(C(=O)Nc5ccccn5)cc4)c4c(N)ncnc43)CC2C1 (centres unmarked)  Tmax (SCID mice, plasma; oral, 15 mg/kg twice daily): 8.5 h

Excerpt of the above:
CC(C)(C)c1ccc(O)c(CN(Cc2cc(C(C)(C)C)ccc2O)C2CCC(NC(N)=O)CC2)c1 (centres unmarked)  Tmax (C57BL/6 mice, male, brain; intraperitoneal, 10 mg/kg): 0.5 h
COc1cc([C@@H]2[C@H]3CO[C@@]4(O)C(=O)[C@@H]2C=C([C@H]2Oc5cc(O)cc(O)c5C(=O)[C@@H]2O)[C@@H]34)ccc1O  Tmax (FVB wild-type mice, plasma; oral gavage, 500 mg/kg silymarin, median): 0.75 h
